Published values of several laboratories.
A part holds a random share of what one study measured. Substitutions count along the parent as printed.

Block 1 — target: CCNA1, cyclin fold, Cln2 fusion (human); method: yeast growth competition, sequencing; sample: yeast; setting: weak parent motif; reference: not given; direction: higher = stronger binding
Parent: MICAL3 docking peptide (human); LQLRRQLSFSEDS
Substitution	normalised enrichment score
LQLRRQLSFSQDS [E11Q]	0.29
LCLRRQLSFSEDS [Q2C]	0.498
LQLRFQLSFSEDS [R5F]	0.17
LQLRRQLKFSEDS [S8K]	0.607
LQLRRQLSYSEDS [F9Y]	0.323
LQLRLQLSFSEDS [R5L]	0.0721
LQLRRQLSFDEDS [S10D]	0.312
LQLRRQLSFSFDS [E11F]	0.106
LQLRRQLSFSNDS [E11N]	0.422

Block 2 — method: protein binding microarray; molecule type: double-stranded DNA, one strand shown; sample: in vitro; tested at: not given; reference: not given; direction: higher = stronger binding
Target: Histone acetyltransferase KAT6A, winged helix 2, GST fusion (KAT6A, Homo sapiens, UniProt Q92794, residues 85-181)
Setting: 8-mer, flanks averaged, mean of 2 arrays, mostly near background
Target sequence (chain): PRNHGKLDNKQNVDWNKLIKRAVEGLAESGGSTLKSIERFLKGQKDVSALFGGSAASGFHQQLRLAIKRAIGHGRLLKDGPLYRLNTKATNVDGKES
Sequence	E-score
TCGTGCAA	0.178
ACCCCCAC	-0.243
GCGATGCA	0.000975
AACAGGGC	0.076
CCTAGCAG	-0.0475
CGATGAAA	0.00585
GAATTAGA	0.106
ATAGAAAC	0.16

Block 3 — method: protein-binding microarray; molecule type: double-stranded DNA, one strand shown; sample: in vitro; tested at: not given; direction: higher = stronger binding
Target: Hepatocyte nuclear factor 3-beta, forkhead domain (FOXA2, Homo sapiens, UniProt Q9Y261, residues 142-269)
Setting: k-mer, scored over probes, only values ≥0.25
Target sequence (chain): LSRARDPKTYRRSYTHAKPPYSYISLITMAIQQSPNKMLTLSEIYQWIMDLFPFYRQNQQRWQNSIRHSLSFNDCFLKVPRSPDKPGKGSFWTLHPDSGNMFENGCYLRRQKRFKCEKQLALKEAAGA
Sequence	E-score
TATATGAA	0.265
GGAAATTA	0.253
CAATCACA	0.253
ACAACACA	0.29
TACATTAA	0.303
TGTGATAA	0.288
ATTTACCA	0.28
TCGTACAA	0.274
AATACAGA	0.301
ATAATGTA	0.328

Further values, each from its own experiment
Substance	target	assay	system	conditions	how to read	endpoint	value
PhoQ, residues 284 288 289 292 302 303 ASVMEA	PhoP, residues 12 14 15 18 19 NYFTV (Escherichia coli, UniProt P23836)	Sort-seq, item: YFP reporter	E. coli	PhoQ-PhoP variant library, with: 10 µM Mg2+	reference: high Mg2+ state, higher = stronger signaling	fold induction	1.33

Repeated from above (further values, each from its own experiment):
Substance	target	assay	system	conditions	how to read	endpoint	value
PhoQ, residues 284 288 289 292 302 303 ASVMEA	PhoP, residues 12 14 15 18 19 NYFTV (Escherichia coli, UniProt P23836)	Sort-seq, item: YFP reporter	E. coli	PhoQ-PhoP variant library, with: 10 µM Mg2+	reference: high Mg2+ state, higher = stronger signaling	fold induction	1.33
